Published values of several laboratories.
Numbered parts are unrelated; each lists some results of a single study.

Study 1 — method: protein binding microarray; molecule type: double-stranded DNA, one strand shown; sample: in vitro; tested at: not given; reference: not given; direction: higher = stronger binding
Target: Histone acetyltransferase KAT6A, winged helix 1, GST fusion (KAT6A, Homo sapiens, UniProt Q92794, residues 1-85)
Setting: 8-mer, flanks averaged, mean of 2 arrays, mostly near background
Construct (chain): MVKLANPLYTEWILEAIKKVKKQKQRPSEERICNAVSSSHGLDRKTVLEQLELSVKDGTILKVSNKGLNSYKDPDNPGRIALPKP
The E-score of `AAAATACA` is reported as -0.123.
The E-score of `ATTGTCGA` is reported as -0.212.
With `CAAACACG` the E-score was 0.14.
For `AAGTAGGT`, the E-score was -0.0879.
The E-score of `GCTCAGAA` is reported as -0.00447.
The E-score of `ATCAATAG` is reported as -0.202.
`GACACTTA` gave an E-score of 0.0262.
The E-score of `GTCACACA` is reported as -0.139.
For `AGCGCCGA`, the E-score was 0.405.
`GATGCGAA` gave an E-score of -0.00095.
`CCGTCTTA` gave an E-score of 0.147.
`ATCGGTGA` gave an E-score of -0.0322.
With `CTCATGGA` the E-score was -0.23.
With `CAGCCTAG` the E-score was -0.157.
For `TCACGTGA`, the E-score was -0.108.
For `ACTTACTA`, the E-score was -0.136.
`ATCCTCAA` has an E-score of -0.115.

Study 2 — method: RNA Bind-n-Seq; molecule type: RNA; sample: in vitro; tested at: not given; reference: input RNA pool; direction: higher = stronger binding
Target: RING finger protein unkempt homolog, zinc fingers 1-6, GST-SBP tag (UNK, Homo sapiens, UniProt Q9C0B0, residues 30-357)
UniProt Q9C0B0, sequence (30-357, looked up): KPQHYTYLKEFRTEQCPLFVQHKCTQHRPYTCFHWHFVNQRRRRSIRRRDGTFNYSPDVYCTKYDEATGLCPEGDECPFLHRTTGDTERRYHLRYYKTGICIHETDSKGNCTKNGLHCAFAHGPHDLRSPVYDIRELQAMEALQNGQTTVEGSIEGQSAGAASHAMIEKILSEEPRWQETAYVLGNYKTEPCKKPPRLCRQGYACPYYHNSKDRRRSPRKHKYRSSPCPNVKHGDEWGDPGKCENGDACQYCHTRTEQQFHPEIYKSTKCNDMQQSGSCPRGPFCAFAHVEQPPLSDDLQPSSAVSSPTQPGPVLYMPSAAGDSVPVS
Setting: RNA with constant flanks, human-mouse chimeric sites, ends assumed
`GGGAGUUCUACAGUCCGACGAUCACUCUUGACUCUUUCCAUCCUCUUCCUUUUCCUCUUGAUAUUCAAGGCCAUGAAUCCCAAAAUAACAGUCUUAGUGGCUAGCACCCAAACAGAGGUGGGUGCCAUCCACCCCAGUGUCUCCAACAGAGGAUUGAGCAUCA` gave a bound/input enrichment of 0.444 ratio.
For `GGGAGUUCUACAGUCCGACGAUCCAGGGCAUCAUCUCUCGUGCUGUUAGACACCUGUUCAAGAGUAUUGAAGAAAAAAAAACCUCAGCGAUUAAAAACGGGCUGCCCCCUCCAGAUUUUAAAGUGAAUGCCCAGUUCCUAGAGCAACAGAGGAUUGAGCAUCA`, the bound/input enrichment was 0.778 ratio.
`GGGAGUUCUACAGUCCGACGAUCCUGGCACUCUAUCAGAUAGAUUACUUUUUAAAUGUAGAUGUAAUUUUAAAAAUGAAUGGCUACUUUACACGUUUAACUAGGGUUUUACUAUAUAUGUGUACAUAUGUAUAUAUAUAUAUACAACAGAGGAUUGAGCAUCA` gave a bound/input enrichment of 7.28 ratio.
`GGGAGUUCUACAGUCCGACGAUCCUGAGGAUACCACUGAAGAGACCUUAAAAGGAGUCAUUGAGGGCUCUGUUCGUGCAAGAAUAGUCACUGAUCGGGAAACUGGUUCUUCCAAAGGGUUUGGUUUUGUAAGACUUCAACGUGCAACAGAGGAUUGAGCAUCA` has a bound/input enrichment of 0.32 ratio.
`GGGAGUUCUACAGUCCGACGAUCCACACACUCUUCUGCGGCACCCUCAUUUUGCAGGCCCGGGCCUAUGUGGGACCGCACGUCCUGGCAGUGGUGACCCGCACAGGGUUCUGCACGGCAAAAGGGGGCCUGGUGAGCUCCAUCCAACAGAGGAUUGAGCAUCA` gave a bound/input enrichment of 0.102 ratio.
For `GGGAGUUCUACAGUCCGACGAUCAAAGAACCUCUCUCUGAAGAAGAGGAAGAAGACAAUGAUGAUGUUGAACCCAUUUCUGAAUUUCGAUUUGUGCCCAGUGAUAAGUCAGCAUUGGAGGCGAUGUUCACUGCAAUGUGCGAGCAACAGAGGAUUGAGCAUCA`, the bound/input enrichment was 0.28 ratio.
`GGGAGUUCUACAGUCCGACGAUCACUCAGAGAUCCACCUCCCAAAGUGCUGGGAGUAAAGUCUGAUAUUACACACCUAACUUGAUGGAUAUAUAUUUUUUCUCUUUUAUGUCUUCCUGUUCGUCCAGGGAAGAAAGAUUUGUUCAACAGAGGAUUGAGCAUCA` has a bound/input enrichment of 0.972 ratio.
The bound/input enrichment of `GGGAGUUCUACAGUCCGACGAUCUGUGCAUUAUGAUGCUUAGAUGGUUUUUGCAAAAGCAGAAAUCGCUGCAAGGUAAUCACAAUAGAUAAAAGUGGUAUUUUAAACCUUUGAAAGGAAUGGAUGUAACUGUACCUUGGUACACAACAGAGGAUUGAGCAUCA` is reported as 0.317 ratio.
For `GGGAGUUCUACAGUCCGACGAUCGCAGGAUCUUCUAAGUACCAGUGGGACAUUAUGAAAUCCCUUGGGCUCUCUGAUGACGACAUAGUGAAAUUUUCUGAAGCAGAGCACUGGCUUGAUUAUUUCCCACCACUGGCUAUUCAGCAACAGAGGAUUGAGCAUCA`, the bound/input enrichment was 0.232 ratio.
`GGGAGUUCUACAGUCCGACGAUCGGAAUUGCUGAUUCAAGUAAGUUUGAGUAUCACAAUGUUAGCUUUCUAAUUCCAUAAAAGUACUUGGUACAGUUUCUUUAUAAUCUGACAUCACCCCAGCGCCAUUUGUAAAGAGCAACUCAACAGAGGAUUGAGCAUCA` has a bound/input enrichment of 0.855 ratio.
`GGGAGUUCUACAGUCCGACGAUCAAAGAGAAACUAAAGCAACUAAUAGAGAAGAGGAUUGGCAAAGAGAAUUUCAUAGAGAAACUAGGAUUUAUUAGCAAACAUGAGUUAGUAUUCCAGACGUCUCAGAAACCCCAGCCAAACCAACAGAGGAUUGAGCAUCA` has a bound/input enrichment of 3.18 ratio.

Study 3 — method: RNA Bind-n-Seq; molecule type: RNA; sample: in vitro; tested at: 365 nM; reference: no-protein control; direction: higher = stronger binding
Target: RNA binding protein fox-1 homolog 2, RRM domain, GST-SBP tag (RBFOX2, Homo sapiens, UniProt O43251-10, residues 100-194)
Setting: natural RNA segment, single round, ends assumed
Residues (chain): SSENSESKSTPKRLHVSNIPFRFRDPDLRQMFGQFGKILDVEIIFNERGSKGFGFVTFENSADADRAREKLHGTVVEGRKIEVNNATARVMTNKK
`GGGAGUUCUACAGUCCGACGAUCAAAAAUAACCCUAAAGUGAAGUGGCUCUAUACUGUUUUAUAGAGUACUUUAACGUGUAUAGAUAUCUUGUAAACUUGUAUUGUGGAUGUGUAAAUAAUAUGUACUUUGGGUGGAAUUCUCGGGUGCCAA` — result for “RBNS enrichment (R)”: 1.68.
Under “RBNS enrichment (R)”, `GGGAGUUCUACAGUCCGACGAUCCGCGUCUUUGACGGUGGGUGUCCCAUUUUUAUCCGCUACUCUUUAUUUCAUGGAGUCGUAUCAACGCUAUGAACGCAAGGCUGUGAUAUGGAACCAGAAGGCUGUCUGAAUGGAAUUCUCGGGUGCCAA` is recorded as 0.377.
`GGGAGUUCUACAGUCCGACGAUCCACACUCCAUCUCCCCGCUUUGUAAAUACCCAUCGGGAAGAGACUUUUUUUCCAUGGUGAAGAGCAAUAAACUCUGGAUGUUUGUGCGCGUGUGUGGACAGUCUUAUCUUUGGAAUUCUCGGGUGCCAA`: “RBNS enrichment (R)” 0.411.
Under “RBNS enrichment (R)”, `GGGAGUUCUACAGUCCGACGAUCGAGCUCGGCCCUCUCUUUGUAGCUGUGACUGUCACCCUCUCAGGCUUUGUCUCAUCCUUCAUUCUGAAUAAGAUGGCAGUGUUCUCCUCUGGGGCCUGAUCCACCUCUACUGGAAUUCUCGGGUGCCAA` is recorded as 0.328.
`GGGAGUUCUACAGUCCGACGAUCCUGAGAAUGUCCCCCCCAAUGGCCUCCGCCAUCCAGAACUUGGUACAUAUUCUGGUGGCUCCCUGCUGGCCCUCUGCUCACACCUUGAAAGAGCCUUUUCAAAUACAGAUUGGAAUUCUCGGGUGCCAA` — result for “RBNS enrichment (R)”: 0.336.
`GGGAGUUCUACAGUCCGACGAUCCAGCCCUCUAAGGGUUUUCUCCUCCGGCAAUGGAUAAGGAGCCCAGCUAUGAAAGCUUUGCUUACUGGGAUGGAUGGGGGCAGACAAGAGGACAGUAGGGAAUCUGCCGAUGGAAUUCUCGGGUGCCAA`: “RBNS enrichment (R)” 0.316.
`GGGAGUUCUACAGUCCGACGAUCCAGAAAACCUGACUCUAACUGGUUUAUAUACAAAAGAAAACUUACUGUAUCAUAUAACAGAAUGAUCCAGGGGAGAUUAAGCUUUGGGCAAGGGCUAUUUACCAGGGCUUUGGAAUUCUCGGGUGCCAA`: “RBNS enrichment (R)” 0.512.
For `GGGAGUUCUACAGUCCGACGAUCUGUCAAACCAUGAUGUUGUCAUUGAGCAGUAGCUCAUGAGCAAUGGCAUGUCUUUCUCCCCUGACCCCAAUCUAUUUUAAUAAAGCAGAGUAGUCAUAGUGUUGAAAGAAUGGAAUUCUCGGGUGCCAA`, “RBNS enrichment (R)” read 0.249.
Under “RBNS enrichment (R)”, `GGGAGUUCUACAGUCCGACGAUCAAGUUCACUACCAUUUGUCAAGAACCACUCUGUCCACAUCCUUUGACCUUUUGGCUUCCACGUCACCCAGAGUGUUAAAAUUUUUACUUAAUUCAUAGCUGUCCUUGAUUUGGAAUUCUCGGGUGCCAA` is recorded as 0.525.
`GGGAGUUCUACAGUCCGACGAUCUAUAGGACUCAGUCCUUAGAUGUUCUUUUUAUUUUAAGAAAUAACCUCUUCAAGUUGUAACCGUGGCGGCUUUGUCCAUUACUGUUGCUAUUCUGCACACAUAUCGGAAGUGGAAUUCUCGGGUGCCAA` — result for “RBNS enrichment (R)”: 0.532.
`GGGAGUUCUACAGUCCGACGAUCUGGUCUUGUUUCUUCAUAACUCACAAUCACUGGCUACCAAGAUAACCCUGAUGUAUUGAUUCCAUAAAUGCAUCACAUUCAGUUUUACCAUGUCUCCUUAGCAAACUUGUUGGAAUUCUCGGGUGCCAA` — result for “RBNS enrichment (R)”: 0.449.
`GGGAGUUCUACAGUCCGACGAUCUUUUGACUCUUCCGUGCAUCCCAGAUAAUGGAGAAUGUAUCAGCCAGCCUUCCCCACCAAGUCUAAAAAGACCUGGCCUUUCACUUUUAGUUGGCAUUUGUUAUCCUCUUUGGAAUUCUCGGGUGCCAA` — result for “RBNS enrichment (R)”: 0.804.

Study 4 — method: protein-binding microarray; molecule type: double-stranded DNA, one strand shown; sample: in vitro; tested at: not given; direction: higher = stronger binding
Target: Cyclic AMP-responsive element-binding protein 1 (CREB1, Homo sapiens, UniProt P16220, residues 1-327, full length assumed)
UniProt P16220, sequence (whole entry, looked up): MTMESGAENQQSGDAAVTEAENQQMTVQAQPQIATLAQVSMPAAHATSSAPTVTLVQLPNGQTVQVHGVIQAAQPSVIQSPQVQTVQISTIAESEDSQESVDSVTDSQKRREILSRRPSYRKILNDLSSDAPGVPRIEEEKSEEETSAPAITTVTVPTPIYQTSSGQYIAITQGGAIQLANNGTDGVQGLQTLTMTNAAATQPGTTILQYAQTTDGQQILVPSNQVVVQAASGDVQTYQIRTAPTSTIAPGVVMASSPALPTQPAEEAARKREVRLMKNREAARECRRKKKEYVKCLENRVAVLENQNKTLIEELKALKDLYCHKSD
Setting: k-mer, scored over probes, only values ≥0.25
With `ACGTCAA` the E-score was 0.377.
The E-score of `GACGCAA` is reported as 0.316.
For `ACGTAAG`, the E-score was 0.331.
For `GTCGTCA`, the E-score was 0.34.
With `GTATCAC` the E-score was 0.262.
The E-score of `ACGACGT` is reported as 0.323.
`TACGTGA` has an E-score of 0.269.
With `CGCGTCA` the E-score was 0.477.
`ACGCGTC` has an E-score of 0.318.
`ATGATAA` has an E-score of 0.274.
`CAATATG` gave an E-score of 0.28.
For `CGTCAGA`, the E-score was 0.369.
The E-score of `ATCATAC` is reported as 0.292.
With `TACGTAA` the E-score was 0.469.
For `CTATTAC`, the E-score was 0.304.
`GTAAACA` gave an E-score of 0.291.
`GACGTTA` has an E-score of 0.329.

Repeated from above (study 3):
`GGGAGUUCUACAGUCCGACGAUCCAGAAAACCUGACUCUAACUGGUUUAUAUACAAAAGAAAACUUACUGUAUCAUAUAACAGAAUGAUCCAGGGGAGAUUAAGCUUUGGGCAAGGGCUAUUUACCAGGGCUUUGGAAUUCUCGGGUGCCAA`: “RBNS enrichment (R)” 0.512.
For `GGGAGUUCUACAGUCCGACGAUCUGUCAAACCAUGAUGUUGUCAUUGAGCAGUAGCUCAUGAGCAAUGGCAUGUCUUUCUCCCCUGACCCCAAUCUAUUUUAAUAAAGCAGAGUAGUCAUAGUGUUGAAAGAAUGGAAUUCUCGGGUGCCAA`, “RBNS enrichment (R)” read 0.249.
Under “RBNS enrichment (R)”, `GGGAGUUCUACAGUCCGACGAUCAAGUUCACUACCAUUUGUCAAGAACCACUCUGUCCACAUCCUUUGACCUUUUGGCUUCCACGUCACCCAGAGUGUUAAAAUUUUUACUUAAUUCAUAGCUGUCCUUGAUUUGGAAUUCUCGGGUGCCAA` is recorded as 0.525.
`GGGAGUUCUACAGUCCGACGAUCUAUAGGACUCAGUCCUUAGAUGUUCUUUUUAUUUUAAGAAAUAACCUCUUCAAGUUGUAACCGUGGCGGCUUUGUCCAUUACUGUUGCUAUUCUGCACACAUAUCGGAAGUGGAAUUCUCGGGUGCCAA` — result for “RBNS enrichment (R)”: 0.532.
`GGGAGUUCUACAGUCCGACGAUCUGGUCUUGUUUCUUCAUAACUCACAAUCACUGGCUACCAAGAUAACCCUGAUGUAUUGAUUCCAUAAAUGCAUCACAUUCAGUUUUACCAUGUCUCCUUAGCAAACUUGUUGGAAUUCUCGGGUGCCAA` — result for “RBNS enrichment (R)”: 0.449.
`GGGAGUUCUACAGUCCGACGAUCUUUUGACUCUUCCGUGCAUCCCAGAUAAUGGAGAAUGUAUCAGCCAGCCUUCCCCACCAAGUCUAAAAAGACCUGGCCUUUCACUUUUAGUUGGCAUUUGUUAUCCUCUUUGGAAUUCUCGGGUGCCAA` — result for “RBNS enrichment (R)”: 0.804.
